Results collected from several papers.
Read-out: metabolic stability

CCn1cc(C(=O)NCCNCCO)c(=O)c2cc(OCc3ccc(C(F)(F)F)cc3)c(C(F)(F)F)cc21
microsomal CLint (male rat, liver microsomes; 1 µM): < 11.6 µL/min/mg

CC1=N[C@H](C)Cc2c(-c3ccc(C)cc3)ccc(O)c21
microsomal CLint (male rat, liver microsomes; 1 µM): > 250 µL/min/mg

COc1ccc(COc2c(OC)ccc3c2C[C@@H](C(=O)O)N(c2nc4ccc(F)cc4o2)C3)cn1
scaled CLint (rat, liver microsomes; 1 µM, pH 7.4): 2.95 mL/min/kg

Cc1ccc(N2C(=O)c3ccccc3NC23C(=O)N(C)c2ccc(Br)cc23)cc1 (centres unmarked)
hepatocyte CLint (rat, hepatocytes): 135 µL/min/10⁶ cells

COc1ccc2c(c1OCc1ccccc1)C[C@@H](C(=O)O)N(c1nc3ccc(F)cc3o1)C2
scaled CLint (rat, liver microsomes; 1 µM, pH 7.4): 12.5 mL/min/kg

Nc1ccn(C[C@@H](CO)OCP(=O)(O)OCCCS(=O)(=O)CCCCCCCCCCCCCC2CCC2)c(=O)n1
hepatocyte CLint (rat, hepatocytes; 1 µM): 6.85 µL/min/10⁶ cells

COc1cncc(-c2cc(F)cc(CNC(=O)c3cc(N4CC[C@@](C#N)(C5CC5)C4=O)cc(C)n3)c2)c1
microsomal CLint (rat, liver microsomes; 0.5 µM): 79 µL/min/mg

CC1(CCCCCCCCCCCCOCCCOP(=O)(O)CO[C@H](CO)Cn2ccc(N)nc2=O)COC1
hepatocyte CLint (rat, hepatocytes; 1 µM): 60.6 µL/min/10⁶ cells

COc1cc(C)c(-c2ccc(O)c3c2C[C@@H](C)N[C@@H]3C)c2cccc(O)c12 (single isomer, unassigned)
microsomal CLint (male rat, liver microsomes; 1 µM): 86.6 µL/min/mg

Nc1ccn(C[C@@H](CO)OCP(=O)(O)OCCCS(=O)(=O)CCCCCCCCCCCCC2CCC2)c(=O)n1
hepatocyte CLint (rat, hepatocytes; 1 µM): 14.7 µL/min/10⁶ cells

COc1cc2c(=O)c(C(=O)NCCNCCO)cn(Cc3ccccc3)c2cc1OCc1ccc(C(C)(C)C)cc1
microsomal CLint (male rat, liver microsomes; 1 µM): < 11.6 µL/min/mg

CC1(CCCCCCCCCCCCS(=O)(=O)CCCOP(=O)(O)CO[C@H](CO)Cn2ccc(N)nc2=O)COC1
hepatocyte CLint (rat, hepatocytes; 1 µM): 33.3 µL/min/10⁶ cells

Cc1cc(N2CCC(C#N)(C3(C)CC3)C2=O)cc(C(=O)NCc2cc(F)cc(-c3cnn(C)c3)c2)n1 (racemic)
microsomal CLint (rat, liver microsomes; 0.5 µM): 39 µL/min/mg

O=C(NCCNCCO)c1cn(Cc2ccc(F)cc2)c2cc(Cl)c(OCc3ccc(C(F)(F)F)cc3)cc2c1=O
microsomal CLint (male rat, liver microsomes; 1 µM): < 11.6 µL/min/mg

Some of these lines once more:
Nc1ccn(C[C@@H](CO)OCP(=O)(O)OCCCS(=O)(=O)CCCCCCCCCCCCC2CCC2)c(=O)n1
hepatocyte CLint (rat, hepatocytes; 1 µM): 14.7 µL/min/10⁶ cells

CC1=N[C@H](C)Cc2c(-c3ccc(C)cc3)ccc(O)c21
microsomal CLint (male rat, liver microsomes; 1 µM): > 250 µL/min/mg
